Measured values collected from several papers.
Each line is one published result; not all experiments were run side by side. Several values in a cell are separate wells, animals, samples, runs or records.
Target: Interferon-induced, double-stranded RNA-activated protein kinase (EIF2AK2, Homo sapiens, UniProt P19525)

CNC1C[S+]2CC[S+]3CC[S+](C1)[Ru-4]321([N]=C=S)[n]2c3ccc(OC)cc3c3c4c(c5cc(F)c[n+]1c5c32)C(=O)NC4=O (stereo not shown)  remaining binding (KinomeScan; 0.1 µM; relative to: untreated): 68%
COc1c(Cl)cccc1Nc1c(-c2ccncc2C#C[C@@]2(C)CCCN2C(=O)/C=C/CN(C)C)[nH]c2c1C(=O)NCC2  remaining binding (binding, competition with immobilised ligand; 3 µM): 97%
CC(C)=CC1OC(C)(C)C2C=C3C(=O)C(Cl)=CC(O)C3C3C(O)C4OC4C(=O)C132 (stereo not shown)  remaining binding (cell-free assay, competition with immobilised ligand; 10 µM): 100%
COc1cc(Nc2nc(C)cc(-c3cnn4nc(OC)ccc34)n2)cc(C(F)(F)F)c1  remaining binding (KINOMEscan; 1 µM, PRKR; relative to: DMSO): 100%
CCn1cc(C(=O)O)c(=O)c2c(N)c(F)c(NC3CCCCC3)cc21  inhibition (kinase activity; 0.1 µM, with: ATP at Km): 6.2%
COCC12C(=O)NC3C4(C(OC)CC1O)C1CC5(O)C(OC)C(O)C(OC(C)=O)(C1C5OC(=O)c1ccccc1)C3(O)C(OC)C24 (stereo not shown)  remaining activity (kinase activity, inhibitor, ProQinase kinase profiling; 25 µM; relative to: control): 84% and 104%
Cc1cc(NC(=O)[C@H](O)c2cc(F)cc(F)c2)ccc1-c1cnc(N)c(C(=O)NC(C)C)c1  remaining binding (binding, competition with immobilised ligand; 1 µM): 100%
C=CC(=O)N1CCCC(n2c(=O)c3ncccc3n(Cc3ccc(Oc4ccccc4)cc3)c2=O)C1 (stereo not shown)  remaining binding (cell-free assay, competition with immobilised ligand; 1 µM): 87%
Cc1cnc2nc1Nc1cccc(c1)COC/C=C/COCc1cc(ccc1OCCN1CCOCC1)N2  binding (concentration not given, kinase construct PRKR; relative to: control): 91%
CCN1CCN(Cc2ccc(C(=O)Nc3ccc(C)c(NCc4cnc5[nH]ccc5c4OC)c3)cc2C(F)(F)F)CC1  remaining binding (binding, competition with immobilised ligand; 1 µM): 92%
CN1CC[C@@H](COc2cnc(C#N)cc2-c2ccn3nc(NC(=O)C4CC4)cc3c2)C1  inhibition (enzyme activity, inhibitor; 1 µM): -11%
C=CC(=O)N1CCc2ccc(-n3c(=O)ccc4cnc5ccc(-c6cnn(C)c6)cc5c43)cc21  remaining binding (KINOMEscan; 1 µM; relative to: DMSO control): 100%
O=C(Cc1ccc(OCc2ccccc2)cc1)NC1(C(=O)O)CCN(C(=O)c2ccc(-c3cccc(Cl)c3)cc2)CC1  activity vs control (enzyme activity, inhibitor; 10 µM): 95%
COc1cc(Nc2nccc(-c3cnn4nc(OC)ccc34)n2)cc(C(F)(F)F)c1  remaining binding (binding, competition with immobilised ligand; 1 µM): 100%
Nc1ncc2c(n1)-c1c([nH]c3ccc(C4=CCOCC4)cc13)CCC2  remaining binding (binding, competition with immobilised ligand; 1 µM): 100%
CN1CCN(Cc2ccc(-c3ccc(CO[C@H]4CCC[C@@H]4NC(=O)c4cc(-c5cnn(C)c5)cnc4N)cc3)cc2)CC1  inhibition (enzyme activity, inhibitor; 0.1 µM): -2%
N[C@H]1CC[C@H](Nc2nccc(-c3cccnc3Oc3ccc(NC(=O)NC4CC4)c4ccccc34)n2)CC1  log2 LFQ intensity (kinobead competition pulldown; HEK293/HCT116 lysate mixture; 10 µM, 1 h, 4 °C; lower = stronger competition): 24 and 24.3
CNC(=O)C1CCN(c2cc(C)c(F)cc2NC(=O)c2ccc(-c3cc(O)ccc3C)c(C)c2)CC1  remaining binding (binding, competition with immobilised ligand; 1 µM): 100%
Cc1ccc(-c2c(/C=C(\C#N)C(=O)NC(C)C)n(CCCO)c3ncnc(N)c23)cc1  remaining binding (cell-free assay, competition with immobilised ligand; 1 µM): 100%

Some of these lines once more:
CNC1C[S+]2CC[S+]3CC[S+](C1)[Ru-4]321([N]=C=S)[n]2c3ccc(OC)cc3c3c4c(c5cc(F)c[n+]1c5c32)C(=O)NC4=O (stereo not shown)  remaining binding (KinomeScan; 0.1 µM; relative to: untreated): 68%
COc1c(Cl)cccc1Nc1c(-c2ccncc2C#C[C@@]2(C)CCCN2C(=O)/C=C/CN(C)C)[nH]c2c1C(=O)NCC2  remaining binding (binding, competition with immobilised ligand; 3 µM): 97%
